Assay results gathered from unrelated publications.
A part holds a random share of what one study measured.
Chain of UniProt Q15303 (whole entry, looked up): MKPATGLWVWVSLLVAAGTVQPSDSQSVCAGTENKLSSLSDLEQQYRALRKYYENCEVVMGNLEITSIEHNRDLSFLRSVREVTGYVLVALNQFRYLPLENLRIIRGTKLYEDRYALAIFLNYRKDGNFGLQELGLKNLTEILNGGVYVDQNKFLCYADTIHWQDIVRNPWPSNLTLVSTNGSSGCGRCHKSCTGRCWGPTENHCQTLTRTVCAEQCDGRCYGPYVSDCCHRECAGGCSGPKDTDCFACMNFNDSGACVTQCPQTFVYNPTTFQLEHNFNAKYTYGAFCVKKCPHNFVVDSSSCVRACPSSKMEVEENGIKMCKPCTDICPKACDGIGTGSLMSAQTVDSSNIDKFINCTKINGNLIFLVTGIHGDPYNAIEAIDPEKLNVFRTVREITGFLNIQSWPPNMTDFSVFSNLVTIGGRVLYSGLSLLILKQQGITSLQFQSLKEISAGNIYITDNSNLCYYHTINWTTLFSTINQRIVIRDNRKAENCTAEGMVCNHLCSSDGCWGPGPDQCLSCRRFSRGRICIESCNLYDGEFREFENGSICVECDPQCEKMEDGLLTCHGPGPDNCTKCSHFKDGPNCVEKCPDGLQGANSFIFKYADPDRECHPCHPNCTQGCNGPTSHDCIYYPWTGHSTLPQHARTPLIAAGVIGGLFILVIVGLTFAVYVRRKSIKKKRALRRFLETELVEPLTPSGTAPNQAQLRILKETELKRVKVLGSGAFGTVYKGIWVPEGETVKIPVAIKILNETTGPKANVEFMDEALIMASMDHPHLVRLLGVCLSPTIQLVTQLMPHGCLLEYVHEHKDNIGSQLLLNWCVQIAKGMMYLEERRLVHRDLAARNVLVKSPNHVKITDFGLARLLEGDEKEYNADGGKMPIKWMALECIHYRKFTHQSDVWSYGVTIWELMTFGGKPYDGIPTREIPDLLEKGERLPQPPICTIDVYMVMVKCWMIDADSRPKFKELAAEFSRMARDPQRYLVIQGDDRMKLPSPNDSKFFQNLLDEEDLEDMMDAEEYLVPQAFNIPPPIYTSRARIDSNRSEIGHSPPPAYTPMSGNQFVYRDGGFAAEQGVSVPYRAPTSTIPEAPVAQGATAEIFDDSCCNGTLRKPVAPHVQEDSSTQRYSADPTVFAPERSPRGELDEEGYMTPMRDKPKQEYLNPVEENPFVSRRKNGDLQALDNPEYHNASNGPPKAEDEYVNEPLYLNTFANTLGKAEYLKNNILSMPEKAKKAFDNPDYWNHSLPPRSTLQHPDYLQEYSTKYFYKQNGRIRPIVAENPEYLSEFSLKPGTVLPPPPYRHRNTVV
Chain of UniProt Q13557 (whole entry, looked up): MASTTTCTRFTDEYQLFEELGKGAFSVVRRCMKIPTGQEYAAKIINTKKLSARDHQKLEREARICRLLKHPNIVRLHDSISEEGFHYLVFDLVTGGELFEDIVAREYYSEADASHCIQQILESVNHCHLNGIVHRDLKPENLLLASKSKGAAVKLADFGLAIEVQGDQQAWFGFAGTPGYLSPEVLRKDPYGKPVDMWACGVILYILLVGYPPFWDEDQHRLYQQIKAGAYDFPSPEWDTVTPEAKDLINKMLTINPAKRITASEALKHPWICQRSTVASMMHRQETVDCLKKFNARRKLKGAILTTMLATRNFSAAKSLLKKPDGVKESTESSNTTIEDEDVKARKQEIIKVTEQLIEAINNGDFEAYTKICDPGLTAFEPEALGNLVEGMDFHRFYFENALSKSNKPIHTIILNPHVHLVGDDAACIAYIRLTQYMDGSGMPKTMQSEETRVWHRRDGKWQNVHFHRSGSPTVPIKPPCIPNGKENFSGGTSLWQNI
Chain of UniProt Q9NYY3 (whole entry, looked up): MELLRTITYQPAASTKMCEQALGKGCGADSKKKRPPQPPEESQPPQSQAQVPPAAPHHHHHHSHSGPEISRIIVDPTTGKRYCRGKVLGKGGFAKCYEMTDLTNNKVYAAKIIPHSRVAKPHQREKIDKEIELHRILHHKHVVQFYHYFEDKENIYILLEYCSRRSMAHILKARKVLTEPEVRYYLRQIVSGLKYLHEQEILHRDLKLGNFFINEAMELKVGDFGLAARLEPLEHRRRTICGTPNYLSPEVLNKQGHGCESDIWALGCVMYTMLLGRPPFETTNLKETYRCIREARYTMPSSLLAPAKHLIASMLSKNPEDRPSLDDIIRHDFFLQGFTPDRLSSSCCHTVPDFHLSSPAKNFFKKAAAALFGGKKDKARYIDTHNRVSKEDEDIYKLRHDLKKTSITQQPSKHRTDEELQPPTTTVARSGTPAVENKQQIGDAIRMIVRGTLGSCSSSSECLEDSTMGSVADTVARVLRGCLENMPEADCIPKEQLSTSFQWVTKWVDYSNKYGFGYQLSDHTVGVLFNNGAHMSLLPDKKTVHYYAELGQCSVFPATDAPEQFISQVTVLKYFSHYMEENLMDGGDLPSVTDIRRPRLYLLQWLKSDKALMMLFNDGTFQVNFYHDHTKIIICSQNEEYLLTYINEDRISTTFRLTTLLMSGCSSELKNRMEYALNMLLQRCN
Chain of UniProt P49760 (whole entry, looked up): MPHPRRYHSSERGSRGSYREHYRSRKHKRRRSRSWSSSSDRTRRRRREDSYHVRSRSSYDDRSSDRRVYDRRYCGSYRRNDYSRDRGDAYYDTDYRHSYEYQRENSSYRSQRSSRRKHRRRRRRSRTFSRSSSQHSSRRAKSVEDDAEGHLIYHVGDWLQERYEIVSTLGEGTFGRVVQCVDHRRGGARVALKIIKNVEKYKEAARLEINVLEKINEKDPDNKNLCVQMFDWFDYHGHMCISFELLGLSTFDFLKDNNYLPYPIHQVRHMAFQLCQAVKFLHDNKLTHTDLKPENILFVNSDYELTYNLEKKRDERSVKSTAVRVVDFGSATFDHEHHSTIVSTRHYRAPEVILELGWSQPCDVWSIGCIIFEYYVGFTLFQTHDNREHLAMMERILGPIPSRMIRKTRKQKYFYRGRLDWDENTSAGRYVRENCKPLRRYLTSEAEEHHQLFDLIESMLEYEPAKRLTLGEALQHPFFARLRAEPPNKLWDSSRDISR
Chain of UniProt Q96GD4 (whole entry, looked up): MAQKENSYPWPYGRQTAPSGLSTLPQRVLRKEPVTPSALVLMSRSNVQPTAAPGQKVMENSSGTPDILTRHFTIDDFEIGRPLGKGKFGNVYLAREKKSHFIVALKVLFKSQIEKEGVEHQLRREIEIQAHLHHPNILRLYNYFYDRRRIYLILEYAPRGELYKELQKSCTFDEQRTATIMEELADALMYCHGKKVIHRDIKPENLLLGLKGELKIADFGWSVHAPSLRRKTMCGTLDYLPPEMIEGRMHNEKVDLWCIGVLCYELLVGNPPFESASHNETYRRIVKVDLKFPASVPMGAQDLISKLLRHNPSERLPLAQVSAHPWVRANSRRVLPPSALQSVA

Block 1 — method: universal PBM; form: double-stranded DNA, one strand shown; matrix: in vitro; concentration: 600 nM; reading: higher = stronger binding; quantity: E-score
Target: Sal-like protein 4, full length isoform A (SALL4, Homo sapiens, UniProt Q9UJQ4, residues 1-1053)
Chain of UniProt Q9UJQ4 (whole entry, looked up): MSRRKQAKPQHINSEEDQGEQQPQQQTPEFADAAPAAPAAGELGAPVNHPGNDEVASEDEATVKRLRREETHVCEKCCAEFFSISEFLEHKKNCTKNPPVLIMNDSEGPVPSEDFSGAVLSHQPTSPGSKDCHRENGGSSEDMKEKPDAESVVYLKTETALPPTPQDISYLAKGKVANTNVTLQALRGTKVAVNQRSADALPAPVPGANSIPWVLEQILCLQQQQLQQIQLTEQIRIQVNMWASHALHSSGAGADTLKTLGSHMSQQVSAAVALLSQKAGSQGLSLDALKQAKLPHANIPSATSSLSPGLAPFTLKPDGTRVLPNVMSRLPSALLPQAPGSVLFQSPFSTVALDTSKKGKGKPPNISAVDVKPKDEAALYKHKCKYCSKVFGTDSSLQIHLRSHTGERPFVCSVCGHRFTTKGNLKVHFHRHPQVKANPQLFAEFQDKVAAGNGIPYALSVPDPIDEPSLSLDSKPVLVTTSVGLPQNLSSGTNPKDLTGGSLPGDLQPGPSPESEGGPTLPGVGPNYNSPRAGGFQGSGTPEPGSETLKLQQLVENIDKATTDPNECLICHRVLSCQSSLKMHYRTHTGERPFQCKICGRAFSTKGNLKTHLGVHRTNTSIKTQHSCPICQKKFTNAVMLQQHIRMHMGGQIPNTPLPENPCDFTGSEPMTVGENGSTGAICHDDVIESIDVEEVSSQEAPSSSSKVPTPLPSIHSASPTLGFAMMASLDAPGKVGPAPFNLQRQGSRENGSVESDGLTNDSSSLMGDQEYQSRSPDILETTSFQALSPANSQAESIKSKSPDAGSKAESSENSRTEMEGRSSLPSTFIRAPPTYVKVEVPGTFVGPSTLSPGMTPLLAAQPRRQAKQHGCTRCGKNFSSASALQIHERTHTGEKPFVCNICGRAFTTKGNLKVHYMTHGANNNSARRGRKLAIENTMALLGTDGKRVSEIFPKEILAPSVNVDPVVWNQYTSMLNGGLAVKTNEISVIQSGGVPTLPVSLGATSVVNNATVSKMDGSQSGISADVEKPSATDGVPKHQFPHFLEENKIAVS
Notes: 8-mer, flanks averaged, mean of replicates
Sequence = AAGGAACC; value = -0.121
Sequence = CAACTTCG; value = -0.0534
Sequence = GTCTATTA; value = 0.231
Sequence = ACCCTTTC; value = 0.0602
Sequence = CCAGCGAC; value = -0.363
Sequence = CTTCTGGC; value = -0.147
Sequence = ATGTGGGA; value = 0.0253
Sequence = ACTTACCG; value = -0.043

Block 2 — read-out: enzyme activity; concentration: 5 µM; reference: untreated control; quantity: remaining activity
SMILES: O=C(Nc1cnn(-c2csc(C(=O)NC3COC3)c2)c1)Nc1c(F)cccc1Cl
target = LCK (Homo sapiens, UniProt P06239); value = 92.4%
target = MAPKAPK5 (Homo sapiens, UniProt Q8IW41); value = 96.3%
target = BRSK1 (Homo sapiens, UniProt Q8TDC3); value = 99.3%
target = PLK2 (Homo sapiens, UniProt Q9NYY3); value = 99.5%

Block 3 — concentration: 1 µM; quantity: remaining binding
Compound: O=C(O)c1cc(-c2ccc(C3CCNCC3)cc2)c2ccc(-c3ccc(C(F)(F)F)cc3)cc2c1
target = EGFR (Homo sapiens, UniProt P00533, del747-752/P753S); read-out = cell-free assay; method = competition with immobilised ligand; value = 100%
target = PRKX (Homo sapiens, UniProt P51817); read-out = cell-free assay; method = competition with immobilised ligand; value = 100%
target = Tyrosine-protein kinase ABL1, phosphorylated (ABL1, Homo sapiens, UniProt P00519, Y253F); read-out = cell-free assay; method = competition with immobilised ligand; value = 73%
target = CILK1 (Homo sapiens, UniProt Q9UPZ9); read-out = cell-free assay; method = competition with immobilised ligand; value = 100%
target = STK32A (Homo sapiens, UniProt Q8WU08); read-out = cell-free assay; method = competition with immobilised ligand; value = 100%
target = ROCK2 (Homo sapiens, UniProt O75116); read-out = cell-free assay; method = competition with immobilised ligand; value = 100%
target = CAMK2B (Homo sapiens, UniProt Q13554); read-out = cell-free assay; method = competition with immobilised ligand; value = 100%
target = CAMK2D (Homo sapiens, UniProt Q13557); read-out = cell-free assay; method = competition with immobilised ligand; value = 100%
target = CLK2 (Homo sapiens, UniProt P49760); read-out = cell-free assay; method = competition with immobilised ligand; value = 100%
target = DAPK3 (Homo sapiens, UniProt O43293); read-out = cell-free assay; method = competition with immobilised ligand; value = 100%
target = STK39 (Homo sapiens, UniProt Q9UEW8); read-out = cell-free assay; method = competition with immobilised ligand; value = 100%
target = RET (Homo sapiens, UniProt P07949, M918T); read-out = cell-free assay; method = competition with immobilised ligand; value = 92%
target = FLT3 (Homo sapiens, UniProt P36888, K663Q); read-out = cell-free assay; method = competition with immobilised ligand; value = 100%
target = EPHA1 (Homo sapiens, UniProt P21709); read-out = cell-free assay; method = competition with immobilised ligand; value = 100%
target = WEE2 (Homo sapiens, UniProt P0C1S8); read-out = cell-free assay; method = competition with immobilised ligand; value = 100%
target = STK38L (Homo sapiens, UniProt Q9Y2H1); read-out = cell-free assay; method = competition with immobilised ligand; value = 100%
target = ABL2 (Homo sapiens, UniProt P42684); read-out = cell-free assay; method = competition with immobilised ligand; value = 100%
target = DSTYK (Homo sapiens, UniProt Q6XUX3); read-out = cell-free assay; method = competition with immobilised ligand; value = 100%
target = Myosin-IIIb (MYO3B, Homo sapiens, UniProt Q8WXR4); read-out = binding; method = competition with immobilised ligand; value = 69%
target = NEK7 (Homo sapiens, UniProt Q8TDX7); read-out = cell-free assay; method = competition with immobilised ligand; value = 100%
target = SIK1 (Homo sapiens, UniProt P57059); method = competition binding; value = 100%
target = ERBB4 (Homo sapiens, UniProt Q15303); read-out = cell-free assay; method = competition with immobilised ligand; value = 100%
target = RIPK4 (Homo sapiens, UniProt P57078); read-out = cell-free assay; method = competition with immobilised ligand; value = 100%
target = CDK14 (Homo sapiens, UniProt O94921); read-out = cell-free assay; method = competition with immobilised ligand; value = 100%
target = Aurora kinase B (AURKB, Homo sapiens, UniProt Q96GD4); read-out = cell-free assay; method = competition with immobilised ligand; value = 100%

Block 4 — method: RNA Bind-n-Seq; form: RNA; matrix: in vitro; concentration: 200 nM; notes: whole 134-nt RNA, ends assumed; with: 150 mM LiCl; reference: input library; reading: higher = stronger binding; quantity: log2 enrichment; library: 7-deaza-guanosine replaces G
Target: Fragile X messenger ribonucleoprotein 1, C-terminal low-complexity region (Fmr1, Mus musculus, UniProt P35922)
Sequence = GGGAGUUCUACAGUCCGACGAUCAGUCCUGUGCUACACAUCGUAUGUACCGAAUCGGGUUUUGGUUUUGGGGUUUUGGGGAAAGUAUUAUGUUACGCCGUUCGGAUCUGCACUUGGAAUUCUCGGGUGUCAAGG; value = -1.34
Sequence = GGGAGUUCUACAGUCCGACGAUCACCAUGCAGGUAGGCAUCUUUGGGAAGUGGGGCAAGGGGGGGAUAGGGAGGGGGGUAACACUUUGGGAACAGGUGGUCCCAGGUCGUUUCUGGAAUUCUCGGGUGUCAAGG; value = 1.4
Sequence = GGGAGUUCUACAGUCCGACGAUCCUGUGCUACACAUCGUAUGUACCGAAUCGGGAAAAAAAGGGUUUUUUUGGGAAAAAAAGGGAAAGUAUUAUGUUACGCCGUUCGGAUCUGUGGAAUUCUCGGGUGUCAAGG; value = -1.86
Sequence = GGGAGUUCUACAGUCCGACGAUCGUCCUGUGCUACACAUCGUAUGUACCGAAUCAAAUUUAAACCCCCAAACCCCCCCAAAAAAGUAUUAUGUUACGCCGUUCGGAUCUGCACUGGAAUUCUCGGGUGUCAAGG; value = 1.22
Sequence = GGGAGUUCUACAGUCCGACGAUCUUCGUUUUUUUCCUUAGUCUGAAGUUGCAGCCGGAGUGAAGAAGAGCGGACCGCUGCCCAGUGCUGAGGUAGAGUGUCGGAUCUGUUUUCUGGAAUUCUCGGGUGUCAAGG; value = -2.98
Sequence = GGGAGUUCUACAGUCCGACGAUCUCAAGUCCUGUGCUACACAUCGUAUGUACCGAAUCGGAAAGGGGAAAGGAAAGGGAAAGUAUUAUGUUACGCCGUUCGGAUCUGCACUUCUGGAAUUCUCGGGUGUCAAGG; value = -0.63
Sequence = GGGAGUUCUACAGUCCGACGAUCGUCCUGUGCUACACAUCGUAUGUACCGAAUCGGAAAAAAAGGAAAAAAAGGAAAAAGGAAAGUAUUAUGUUACGCCGUUCGGAUCUGCACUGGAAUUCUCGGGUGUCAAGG; value = -0.879
Sequence = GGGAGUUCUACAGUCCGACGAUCAAGUCCUGUGCUACACAUCGUAUGUACCGAAUCGGUUUUUUUGGAAAAAAAGGUGGAAAGUAUUAUGUUACGCCGUUCGGAUCUGCACUUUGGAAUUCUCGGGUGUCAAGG; value = -3.37

Further values, each from its own experiment
ADRB1: Beta-1 adrenergic receptor (ADRB1, Homo sapiens, UniProt P08588)
Chain of UniProt P08588 (whole entry, looked up): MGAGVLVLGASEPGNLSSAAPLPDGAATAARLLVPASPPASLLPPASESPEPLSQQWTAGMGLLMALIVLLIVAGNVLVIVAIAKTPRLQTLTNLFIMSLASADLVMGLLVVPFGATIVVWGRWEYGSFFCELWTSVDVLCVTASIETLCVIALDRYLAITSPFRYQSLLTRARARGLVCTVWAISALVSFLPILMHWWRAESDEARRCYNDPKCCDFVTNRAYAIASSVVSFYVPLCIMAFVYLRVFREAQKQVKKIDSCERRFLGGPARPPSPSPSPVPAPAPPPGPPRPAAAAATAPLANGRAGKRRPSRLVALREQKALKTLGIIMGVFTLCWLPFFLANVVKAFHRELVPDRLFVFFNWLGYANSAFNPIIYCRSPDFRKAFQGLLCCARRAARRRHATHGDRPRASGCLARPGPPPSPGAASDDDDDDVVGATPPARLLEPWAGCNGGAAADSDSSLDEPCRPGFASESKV
Compound = CCN1CCN(c2cc3c(cc2F)c(=O)c(C(=O)O)cn3C2CC2)CC1; target or system = Sarcocystis neurona; assay = parasite growth; setting = 10 µM, 96 h; quantity = inhibition; value = -0.9%
Compound = COc1ccc(CC(=O)Nc2ccc([C@@H](O)[C@H]3COCC(=O)N3Cc3ccccc3OC)cc2)cc1; target or system = ADRB1; assay = antagonist; quantity = IC50; value = ≥ 100 µM
Compound = O=c1c(O[C@@H]2O[C@H](CO)[C@H](O)[C@H](O)[C@H]2O)c(-c2ccc(O)c(O)c2)oc2cc(O)cc(O)c12; target or system = Sarcocystis neurona; assay = parasite growth; setting = 10 µM, 96 h; quantity = inhibition; value = -13.2%
Compound = O=c1ccccn1Cc1nc2cc(Cl)ccc2n1CCO; system = mouse, microsomes or S9; setting = 2 µM, 0.5 h; quantity = remaining compound; value = 88.6%
Compound = C[C@H](CCC(=O)O)[C@H]1CC[C@H]2[C@@H]3C(=O)C[C@@H]4CC(=O)CC[C@]4(C)[C@H]3CC(=O)[C@]12C; target or system = Sarcocystis neurona; assay = parasite growth; setting = 10 µM, 96 h; quantity = inhibition; value = -12.1%
Compound = COc1ccc(CN2C(=O)COC[C@@H]2[C@H](O)c2ccc(NC(=O)Cc3ccccc3)cc2)cc1; target or system = ADRB1; assay = antagonist; quantity = IC50; value = ≥ 100 µM

Excerpt of the above (block 4):
Sequence = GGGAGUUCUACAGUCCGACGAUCACCAUGCAGGUAGGCAUCUUUGGGAAGUGGGGCAAGGGGGGGAUAGGGAGGGGGGUAACACUUUGGGAACAGGUGGUCCCAGGUCGUUUCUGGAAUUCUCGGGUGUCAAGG; value = 1.4
Sequence = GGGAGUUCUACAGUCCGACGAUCCUGUGCUACACAUCGUAUGUACCGAAUCGGGAAAAAAAGGGUUUUUUUGGGAAAAAAAGGGAAAGUAUUAUGUUACGCCGUUCGGAUCUGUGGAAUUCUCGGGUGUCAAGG; value = -1.86
Sequence = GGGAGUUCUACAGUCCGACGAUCGUCCUGUGCUACACAUCGUAUGUACCGAAUCAAAUUUAAACCCCCAAACCCCCCCAAAAAAGUAUUAUGUUACGCCGUUCGGAUCUGCACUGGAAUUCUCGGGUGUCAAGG; value = 1.22
Sequence = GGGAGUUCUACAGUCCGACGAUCUUCGUUUUUUUCCUUAGUCUGAAGUUGCAGCCGGAGUGAAGAAGAGCGGACCGCUGCCCAGUGCUGAGGUAGAGUGUCGGAUCUGUUUUCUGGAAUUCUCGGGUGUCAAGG; value = -2.98
Sequence = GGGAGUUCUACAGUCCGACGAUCUCAAGUCCUGUGCUACACAUCGUAUGUACCGAAUCGGAAAGGGGAAAGGAAAGGGAAAGUAUUAUGUUACGCCGUUCGGAUCUGCACUUCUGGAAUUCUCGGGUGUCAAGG; value = -0.63
